Measured values collected from several papers.
Each line is one published result; not all experiments were run side by side. Numbers after ± are the reported error.

`OCCc1ccc(O)c(O)c1` has a Cmax of 74 ± 17 nM (male C57BL/6J mice low-fat diet, plasma; oral, 200 mg/kg, diet 8 weeks).
`COc1ccc(/N=C(\N)CC(O)c2cc3c(F)cc(F)cc3c3cc(C(F)(F)F)ccc23)cc1.Cl` (stereo not drawn) gave a Cmax of 3.7 ng/mL (mouse, dried blood spot; oral, 3 mg/kg single dose).
`CC(=O)N[C@@H](Cc1ccccc1)C(=O)N[C@H]1CCCNC(=O)[C@H](CCCNC(=N)N)NC(=O)[C@H](Cc2c[nH]c3ccccc23)NC(=O)[C@@H](CC2CCCCC2)NC(=O)[C@@H]2CCCN2C1=O` has a Cmax of 3770 ng/mL (C57BL/6J mouse, plasma; subcutaneous, 1 mg/kg, single dose).
With `COc1ccc(CCC(C)=O)cc1` the Cmax was 64 ± 15 nM (obese male C57BL/6J mice, plasma; oral, 200 mg/kg, high-fat diet 8 weeks).
`Cc1cc(Nc2cc3ncccc3c(N[C@@H]3C[C@H]4CC[C@@H](C3)N4CCC#N)n2)n[nH]1` gave a Cmax of 81.7 ng/mL (beagle dog, female, plasma; oral, 30 mg/kg/day, last day of 39 weeks).
`CCCC[C@H](NC(C)=O)C(=O)N[C@H]1CCC(=O)NC[C@@H](C(=O)N[C@@H](Cc2c[nH]c3ccccc23)C(N)=O)NC(=O)[C@H](CCCNC(=N)N)NC(=O)[C@@H](Cc2ccccc2)NC(=O)[C@H](Cc2c[nH]cn2)NC1=O` has a Cmax of 1080 ng/mL (CD Sprague-Dawley rat, female, plasma; subcutaneous, 5.0 mg/kg/day, day 1).
`CC[C@H](C)[C@@H]1NC(=O)[C@H](Cc2ccc(O)cc2)NC(=O)[C@@H](N)CSSC[C@@H](C(=O)N2CCC[C@H]2C(=O)N[C@@H](CC(C)C)C(=O)NCC(N)=O)NC(=O)[C@H](CC(N)=O)NC(=O)[C@H](CCC(N)=O)NC1=O` gave a Cmax of 291 ± 42 pg/sample (ELISA; C57BL/6J male mice, wild type, plasma; intraperitoneal, 12 µg total).
`COc1cc(CCC(C)=O)ccc1O` gave a Cmax of 25000 ± 2900 nM (male C57BL/6J mice low-fat diet, plasma; oral, 200 mg/kg, after enzymatic deconjugation).
`COc1cccc2c1C(=O)c1c(O)c3c(c(O)c1C2=O)C[C@@](O)(C(=O)CO)C[C@@H]3O[C@H]1C[C@H](N)[C@H](O)[C@H](C)O1` gave a Cmax of 339000 nM (mouse, E0771 tumour-bearing, kidney; intravenous, 92 µmol/kg).
For `COc1cc(OC)c(/C=C/S(=O)(=O)Cc2ccc(OC)c(NCC(=O)O)c2)c(OC)c1`, the Cmax was 200 ± 70 ng/mL (cancer patients, phase I, plasma; oral, 140 mg twice daily, day 1 cycle 1).
`O=c1c(O)c(-c2ccc(O)cc2)oc2cc(OS(=O)(=O)O)cc(O)c12` has a Cmax of 1090 ± 210 nM (FVB mice, male, Bcrp1^−/−, plasma; oral, 10 mg/kg of kaempferol).
`Cc1nc2cccc(OCC(C)(C)C(=O)NC(C)C)c2c(N)c1C(=O)O` has a Cmax of 38.5 ng/mL (female Sprague-Dawley rat, plasma; dietary, 60 mg/kg/day, day 7).
`CC(=O)C=Cc1ccc(O)c(O)c1` has a Cmax of 1290 ± 100 nM (obese male C57BL/6J mice, plasma; oral, 200 mg/kg, high-fat diet 8 weeks).
`COc1cccc(-c2n[nH]c(SCc3ccccn3)n2)c1OC` has a Cmax of 3160 ng/mL (Sprague-Dawley rat, both sexes, plasma; oral, diet, 30 mg/kg/day, day 90).
`Cc1ccc(Sc2ccccc2N2CCNCC2)c(C)c1` gave a Cmax of 21.4 ng/mL (healthy men, plasma; oral, 20 mg once daily, fed, day 12).
